Measurements of several laboratories.
Lines come from different studies, so protocols differ.
Target: Amine oxidase [flavin-containing] B (MAOB, Homo sapiens, UniProt P27338)
Sequence of UniProt P27338 (whole entry, looked up): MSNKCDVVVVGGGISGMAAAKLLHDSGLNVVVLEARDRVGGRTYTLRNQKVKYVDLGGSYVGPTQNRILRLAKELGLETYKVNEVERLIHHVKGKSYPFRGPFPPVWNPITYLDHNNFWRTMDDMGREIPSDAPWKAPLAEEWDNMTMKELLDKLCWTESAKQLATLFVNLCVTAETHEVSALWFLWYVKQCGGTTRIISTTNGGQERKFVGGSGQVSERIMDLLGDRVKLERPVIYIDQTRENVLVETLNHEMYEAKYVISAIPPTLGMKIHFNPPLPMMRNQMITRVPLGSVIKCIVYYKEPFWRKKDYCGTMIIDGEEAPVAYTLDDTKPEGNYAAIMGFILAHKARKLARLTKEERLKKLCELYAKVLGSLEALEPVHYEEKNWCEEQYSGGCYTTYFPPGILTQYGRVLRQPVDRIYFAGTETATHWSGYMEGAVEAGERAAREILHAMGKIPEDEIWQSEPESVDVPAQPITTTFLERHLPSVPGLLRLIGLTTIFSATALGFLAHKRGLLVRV
Effect on: enzyme activity
Mode: inhibitor
Tested at: 10 µM

O=C1c2cc(F)ccc2NC12CCCC2  remaining activity: 67.8%
NC(=O)N/N=C/c1ccc(OCc2cccc(F)c2)cc1  remaining activity (absorbance): 3.57%
O=C1c2ccccc2N(Cc2cccc(Br)c2)C12CCCC2  remaining activity: 11%
O=C(/C=C/c1cccc(Br)c1)c1cc2ccccc2oc1=O  remaining activity: 95.6%
S=C(N/N=C/c1ccc(OCc2ccccc2)cc1)Nc1ccccc1  remaining activity (absorbance): 38.1%
O=C(/C=C/c1ccc(F)cc1)c1cc2ccccc2oc1=O  remaining activity: 30.8%
O=C1c2cc(Br)ccc2NC12CCCC2  remaining activity: 67%
O=C(/C=C/c1ccc(Cl)cc1)c1ccc(N2CCNCC2)cc1  remaining activity: 11.6%
O=C1c2ccccc2N(Cc2ccccc2)C12CCCC2  remaining activity: 61.3%
CCc1ccc(/C=C/C(=O)c2ccc(N3CCNCC3)cc2)cc1  remaining activity: 27.3%
NC(=O)N/N=C/c1cccc(OCc2ccccc2)c1  remaining activity (absorbance): 33%
O=C(/C=C/c1ccccc1F)c1cc2ccccc2oc1=O  remaining activity: 37.7%
O=C(/C=C/c1ccc(O)cc1)c1ccc(N2CCNCC2)cc1  remaining activity: 13.3%
O=C1c2cc(Cl)ccc2NC12CCCC2  remaining activity: 78%
CNC(=S)N/N=C/c1ccccc1OCc1ccccc1  remaining activity (absorbance): 24.7%
O=C(/C=C/c1cccc(Cl)c1)c1cc2ccccc2oc1=O  remaining activity: 34.9%
NC(=S)N/N=C/c1ccccc1OCc1ccccc1  remaining activity (absorbance): 46.6%
O=C(/C=C/c1ccc(C(F)(F)F)cc1)c1ccc(N2CCNCC2)cc1  remaining activity: 10.4%
O=C(/C=C/c1ccccc1)c1cc2ccccc2oc1=O  remaining activity: 10.4%
S=C(N/N=C/c1cccc(OCc2ccccc2)c1)Nc1ccccc1  remaining activity (absorbance): -0.86%

Excerpt of the above:
O=C(/C=C/c1ccccc1)c1cc2ccccc2oc1=O  remaining activity: 10.4%
O=C(/C=C/c1cccc(Br)c1)c1cc2ccccc2oc1=O  remaining activity: 95.6%
O=C1c2cc(F)ccc2NC12CCCC2  remaining activity: 67.8%
